Measured values collected from several papers.
Every numbered part comes from another study and shows a few of its results, in no order. “And” joins repeats or separate records; there may be more than shown. Positions count from the first letter of the parent shown.
UniProt Q9H1R3, sequence (whole entry, looked up): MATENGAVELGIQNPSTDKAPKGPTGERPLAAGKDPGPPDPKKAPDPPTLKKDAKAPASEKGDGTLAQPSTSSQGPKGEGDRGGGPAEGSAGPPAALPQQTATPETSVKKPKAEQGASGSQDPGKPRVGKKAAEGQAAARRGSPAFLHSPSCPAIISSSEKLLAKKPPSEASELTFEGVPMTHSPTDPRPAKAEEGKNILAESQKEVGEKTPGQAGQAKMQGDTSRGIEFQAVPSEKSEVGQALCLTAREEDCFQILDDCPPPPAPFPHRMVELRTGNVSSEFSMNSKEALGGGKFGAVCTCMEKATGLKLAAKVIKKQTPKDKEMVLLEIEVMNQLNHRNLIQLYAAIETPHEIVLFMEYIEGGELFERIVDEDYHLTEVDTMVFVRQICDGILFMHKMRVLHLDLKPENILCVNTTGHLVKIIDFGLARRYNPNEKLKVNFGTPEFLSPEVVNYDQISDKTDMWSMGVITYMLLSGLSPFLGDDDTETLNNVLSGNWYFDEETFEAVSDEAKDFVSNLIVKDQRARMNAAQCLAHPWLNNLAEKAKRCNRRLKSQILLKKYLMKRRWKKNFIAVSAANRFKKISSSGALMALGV
UniProt O43283, sequence (whole entry, looked up): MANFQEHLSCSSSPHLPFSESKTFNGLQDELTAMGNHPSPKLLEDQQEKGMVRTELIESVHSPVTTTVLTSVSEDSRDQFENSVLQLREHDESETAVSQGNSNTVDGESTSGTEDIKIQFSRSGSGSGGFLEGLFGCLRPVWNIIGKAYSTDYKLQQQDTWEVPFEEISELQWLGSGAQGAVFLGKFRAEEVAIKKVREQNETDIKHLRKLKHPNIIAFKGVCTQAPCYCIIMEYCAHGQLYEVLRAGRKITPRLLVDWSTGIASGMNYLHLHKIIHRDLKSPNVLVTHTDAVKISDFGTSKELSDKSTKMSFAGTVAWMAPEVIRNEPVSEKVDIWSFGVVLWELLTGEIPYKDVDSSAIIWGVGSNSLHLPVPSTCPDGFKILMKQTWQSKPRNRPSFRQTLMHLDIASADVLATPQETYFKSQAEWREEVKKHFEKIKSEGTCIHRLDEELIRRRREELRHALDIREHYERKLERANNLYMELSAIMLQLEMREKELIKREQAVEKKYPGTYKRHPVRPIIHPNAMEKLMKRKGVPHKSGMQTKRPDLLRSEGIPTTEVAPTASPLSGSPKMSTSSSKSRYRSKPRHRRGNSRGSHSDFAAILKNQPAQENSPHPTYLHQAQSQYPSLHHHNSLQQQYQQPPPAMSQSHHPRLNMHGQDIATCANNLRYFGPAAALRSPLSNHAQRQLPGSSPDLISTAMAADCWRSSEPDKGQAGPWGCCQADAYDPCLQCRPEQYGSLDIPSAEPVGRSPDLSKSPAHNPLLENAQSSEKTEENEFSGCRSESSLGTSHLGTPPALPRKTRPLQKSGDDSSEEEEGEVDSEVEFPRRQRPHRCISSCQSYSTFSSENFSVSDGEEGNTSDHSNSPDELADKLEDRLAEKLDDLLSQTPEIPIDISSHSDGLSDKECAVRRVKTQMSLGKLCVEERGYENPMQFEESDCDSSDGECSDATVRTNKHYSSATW
UniProt P49336, sequence (whole entry, looked up): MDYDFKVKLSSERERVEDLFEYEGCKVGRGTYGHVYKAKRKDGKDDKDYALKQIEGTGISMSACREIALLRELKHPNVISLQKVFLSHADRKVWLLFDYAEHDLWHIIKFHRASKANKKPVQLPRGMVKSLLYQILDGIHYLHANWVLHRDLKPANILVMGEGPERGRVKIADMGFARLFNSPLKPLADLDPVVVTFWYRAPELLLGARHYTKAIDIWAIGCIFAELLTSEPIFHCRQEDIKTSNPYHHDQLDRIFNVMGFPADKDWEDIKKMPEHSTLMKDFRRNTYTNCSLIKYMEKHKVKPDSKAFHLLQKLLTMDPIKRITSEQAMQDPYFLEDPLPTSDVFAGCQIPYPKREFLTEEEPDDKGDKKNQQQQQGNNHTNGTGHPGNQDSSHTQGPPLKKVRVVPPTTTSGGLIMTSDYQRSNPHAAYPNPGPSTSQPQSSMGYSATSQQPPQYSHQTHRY
UniProt O14965, sequence (whole entry, looked up): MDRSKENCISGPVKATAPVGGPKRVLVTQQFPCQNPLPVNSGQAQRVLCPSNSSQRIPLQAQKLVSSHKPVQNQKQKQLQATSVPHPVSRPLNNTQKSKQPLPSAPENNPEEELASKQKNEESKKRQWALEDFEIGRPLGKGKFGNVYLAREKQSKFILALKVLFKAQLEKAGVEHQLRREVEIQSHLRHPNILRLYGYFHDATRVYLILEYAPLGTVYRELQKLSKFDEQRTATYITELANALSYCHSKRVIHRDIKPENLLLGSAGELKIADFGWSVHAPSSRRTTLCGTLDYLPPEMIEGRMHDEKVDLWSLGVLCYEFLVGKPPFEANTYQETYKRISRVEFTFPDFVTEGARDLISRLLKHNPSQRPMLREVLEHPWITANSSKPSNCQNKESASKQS

Sample 1 — read-out: cell-free assay; method: competition with immobilised ligand; tested at: 1 µM
Compound: Cn1cncc1[C@](O)(COc1ccc(C#N)cc1-c1ccc(OC(F)(F)F)cc1)c1ccc(C#N)cc1
| target | remaining binding [%] |
| --- | --- |
| MAP3K13 (Homo sapiens, UniProt O43283) | 100 |
| MYLK2 (Homo sapiens, UniProt Q9H1R3) | 78 |
| Aurora kinase A (AURKA, Homo sapiens, UniProt O14965) | 95 |
| CDK8 (Homo sapiens, UniProt P49336) | 66 |

Sample 2 — target: CCNF, cyclin fold, Cln2 fusion (human); method: yeast growth competition, sequencing; matrix: yeast; setting: strong parent motif; relative to: not given; direction: higher = stronger binding; starting sequence: viral docking peptide; YKVKRRLVFGADD
| Change | normalised enrichment score |
| --- | --- |
| V3R | 6.03 |
| G10K | 7.76 |
| D12E | 8.22 |
| K2P | 7.44 |
| D12W | 9.03 |
| G10Q | 8.63 |
| D12Q | 8.95 |
| K2H | 8.88 |

Sample 3 — read-out: peptide-MHC binding; molecule type: peptide; tested at: concentration not given
Target: HLA class I histocompatibility antigen, C alpha chain, allele C*04:01 (Homo sapiens, UniProt P10321)
| Sequence | binding |
| --- | --- |
| RIFPATHYV | inactive |
| RYWYFAAEL | active |
| IYYWTAWLI | inactive |
| RFEAYGWQV | inactive |
| RYSGFVRTL | inactive |
| FPASHMATY | inactive |
| HPVTATISF | inactive |
| YTFFFTQYF | inactive |

Single results of other studies — method: CCK-8
| Compound | cell line | read-out | tested at | with | viability |
| --- | --- | --- | --- | --- | --- |
| CC[C@H](C)c1nc2cc(Nc3ccnc4ccc(S(=O)(=O)C(C)C)cc34)ccc2s1.Cl | HT-29 | necroptosis protection | 0.156 µM | TNF-α SMAC mimetic zVAD | 19.8% and 12% and 16.8% and 15.8% |
| Cc1ccc(O)cc1Nc1ccnc2cc(-c3ccccn3)ccc12 | L929 |  | 3.125 µM | zVAD | 49.5% and 51.3% and 62.3% and 60.5% |

Excerpt of the above (sample 2):
| Change | normalised enrichment score |
| --- | --- |
| V3R | 6.03 |
| G10K | 7.76 |
| D12E | 8.22 |
| K2P | 7.44 |
